{"data": "Measured values gathered from unrelated publications", "note": "Numbers after ± are the reported error.", "UniProt P54619, sequence (whole entry, looked up)": "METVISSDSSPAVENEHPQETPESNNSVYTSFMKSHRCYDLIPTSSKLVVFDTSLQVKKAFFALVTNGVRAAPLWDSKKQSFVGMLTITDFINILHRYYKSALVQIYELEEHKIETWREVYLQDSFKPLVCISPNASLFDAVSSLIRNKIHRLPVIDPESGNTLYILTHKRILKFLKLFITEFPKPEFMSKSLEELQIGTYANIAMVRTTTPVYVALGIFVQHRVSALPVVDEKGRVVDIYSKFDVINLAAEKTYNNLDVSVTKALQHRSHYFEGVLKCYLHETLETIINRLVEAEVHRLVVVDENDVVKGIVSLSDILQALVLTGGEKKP", "UniProt P54646, sequence (whole entry, looked up)": "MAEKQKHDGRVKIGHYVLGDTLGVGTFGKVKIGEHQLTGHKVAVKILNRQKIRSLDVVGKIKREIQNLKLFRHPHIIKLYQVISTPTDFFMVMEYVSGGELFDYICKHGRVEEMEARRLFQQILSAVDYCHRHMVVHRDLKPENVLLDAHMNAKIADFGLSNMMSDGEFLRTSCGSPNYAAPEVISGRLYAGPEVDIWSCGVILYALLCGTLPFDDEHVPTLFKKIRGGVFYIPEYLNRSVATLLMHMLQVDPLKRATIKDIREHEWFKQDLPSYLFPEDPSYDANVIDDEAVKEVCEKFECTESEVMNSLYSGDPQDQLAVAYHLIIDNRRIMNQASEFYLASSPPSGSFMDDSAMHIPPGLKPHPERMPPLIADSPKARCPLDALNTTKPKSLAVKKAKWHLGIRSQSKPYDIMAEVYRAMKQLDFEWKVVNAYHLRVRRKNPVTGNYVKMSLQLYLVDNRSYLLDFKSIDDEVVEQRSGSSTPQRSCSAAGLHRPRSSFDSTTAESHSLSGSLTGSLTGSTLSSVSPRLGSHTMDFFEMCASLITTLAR", "UniProt Q9Y478, sequence (whole entry, looked up)": "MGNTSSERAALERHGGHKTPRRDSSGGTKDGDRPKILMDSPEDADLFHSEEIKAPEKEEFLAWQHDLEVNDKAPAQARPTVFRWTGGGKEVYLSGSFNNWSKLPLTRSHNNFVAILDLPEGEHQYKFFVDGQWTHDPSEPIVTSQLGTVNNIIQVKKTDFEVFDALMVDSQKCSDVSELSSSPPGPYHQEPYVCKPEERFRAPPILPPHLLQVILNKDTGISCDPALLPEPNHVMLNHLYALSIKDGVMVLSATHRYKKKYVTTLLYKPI"}
{"SMILES": "CC(C)OCCOCc1ccc(OCC(O)CN(N=O)C(C)C)cc1 (stereo not shown)", "tested on": "Salmonella typhimurium", "assay": "Ames test", "system": "TA100", "conditions": "50 µg/plate, 30 % hamster S9", "how to read": "reference: solvent control", "measurement": "revertant fold increase", "value": "1.2 fold"}
{"SMILES": "Cc1cccc(C)c1N(CC(=O)Nc1ccc(-c2ncon2)cc1)C(=O)C1CCS(=O)(=O)CC1", "tested on": "human alphaherpesvirus 1", "system": "K26 GFP, 3D adult human skin submerged", "conditions": "48 h", "measurement": "IC50", "value": "380 nM"}
{"SMILES": "CCN(CC)CC#CCNc1ccnc2cc(Cl)ccc12", "tested on": "Plasmodium falciparum", "system": "IPC_4912", "measurement": "IC50", "value": "48.6 nM"}
{"SMILES": "COc1ccc(-c2nc(N3CCOCC3)c3sc(CN(C)c4ncc(C(=O)NO)cn4)cc3n2)cn1", "tested on": "human alphaherpesvirus 1", "system": "K26 GFP, 3D adult human skin submerged", "conditions": "48 h", "measurement": "IC50", "value": "370 nM"}
{"SMILES": "CC(C)C[C@H](NC(=O)[C@@H](CCCCNC(=O)[C@@H](Cc1ccccc1)NC(=O)CCCCCNC(=O)CN1CCN(CC(=O)O)CCN(CC(=O)O)CCN(CC(=O)O)CC1)NC(=O)[C@H](Cc1ccc(O)cc1)NC(=O)[C@H](CO)NC(=O)[C@H](Cc1c[nH]c2ccccc12)NC(=O)[C@H](Cc1c[nH]cn1)NC(=O)[C@@H]1CCC(=O)N1)C(=O)N[C@@H](CCCNC(=N)N)C(=O)N1CCC[C@H]1C(=O)NCC(N)=O [indium-111 labelled]", "system": "athymic nude mouse, female, pituitary", "conditions": "intravenous, 0.037 MBq, 0.5 h", "measurement": "tissue uptake", "value": "38.6 ± 6.75 %ID/g"}
{"SMILES": "O=Cc1c[nH]c2ccccc12", "tested on": "Bifidobacterium longum", "assay": "microbial growth, absorbance", "measurement": "IC50", "value": "> 50000 nM"}
{"SMILES": "C=C1CC[C@H](OCCCNC(=O)CCOCCOCCOCCOCCOCCOCCOCCOCCOCCOCCOCCOCCOCCOCCOCCOCCOCCOCCOCCOCCOCCOCCOCCOCCOCCOCCOCCOCCOCCOCCOCCOCCOCCOCCOCCOCCNC(=O)CCN2C(=O)CC(SC[C@H](NC(=O)[C@H](Cc3ccccc3)NC(=O)[C@H](CC(N)=O)NC(=O)[C@H](Cc3c[nH]cn3)NC(=O)[C@@H](NC(=O)[C@H](CC(=O)O)NC(=O)[C@H](CCC(N)=O)NC(=O)[C@H](CC(C)C)NC(=O)[C@H](CCCCN)NC(=O)[C@H](CCCCN)NC(=O)[C@H](CCCNC(=N)N)NC(=O)[C@H](CC(C)C)NC(=O)[C@H](Cc3c[nH]c4ccccc34)NC(=O)[C@H](CCC(=O)O)NC(=O)[C@@H](NC(=O)[C@H](CCCNC(=N)N)NC(=O)[C@H](CCC(=O)O)NC(=O)[C@H](CCSC)NC(=O)[C@H](CO)NC(=O)[C@H](CC(N)=O)NC(=O)[C@H](CC(C)C)NC(=O)[C@H](Cc3c[nH]cn3)NC(=O)[C@H](CCCCN)NC(=O)CNC(=O)[C@H](CC(C)C)NC(=O)[C@H](CC(N)=O)NC(=O)[C@H](Cc3c[nH]cn3)NC(=O)[C@H](CCSC)NC(=O)[C@H](CC(C)C)NC(=O)[C@H](CCC(N)=O)NC(=O)[C@@H](NC(=O)[C@H](CCC(=O)O)NC(=O)[C@H](CO)NC(=O)[C@@H](NC(=O)[C@@H](N)CO)C(C)C)[C@@H](C)CC)C(C)C)C(C)C)C(=O)O)C2=O)C/C1=C/C=C1\\CCC[C@]2(C)[C@@H]([C@H](C)CCCC(C)(C)O)CC[C@@H]12 (stereo partly shown)", "system": "male cynomolgus monkey, plasma", "conditions": "subcutaneous, 0.07 mg/kg, single dose", "measurement": "Cmax", "value": "389 ng/mL"}
{"SMILES": "COC1CN([C@H]2CC[C@H]([C@@]3(C)Oc4c(Cl)cc(C(=O)NCc5c(SC)cc(C)[nH]c5=O)c(C)c4O3)CC2)C1", "assay": "RNA-seq, item: CERS4 mouse homolog", "system": "mouse, HT-1376 xenograft, whole blood", "conditions": "dose not given", "how to read": "reference: vehicle", "measurement": "log2 fold change", "value": 1.01}
{"SMILES": "Cc1nc(N(C)C(=O)Cc2ccc(-c3ccccn3)cc2)sc1S(N)(=O)=O", "tested on": "human alphaherpesvirus 1", "system": "K26 GFP, 3D adult human skin submerged", "conditions": "48 h", "measurement": "IC50", "value": "240 nM"}
{"SMILES": "Cc1nn(-c2cccc(N)c2)c(=O)c2cnc(Nc3ccc(N4CCNCC4)cc3)nc12", "tested on": "AMPK alpha2/beta1/gamma1 (PRKAG1/PRKAA2/PRKAB1, Homo sapiens, UniProt P54619+P54646+Q9Y478)", "assay": "kinase activity, inhibitor, SelectScreen kinase profiling", "measurement": "IC50", "value": "3270 nM"}
{"SMILES": "COC1C=COC2(C)Oc3c(C)c(O)c4c(c3C2=O)C2=NC3(CCN(CC(C)C)CC3)NC2=C(NC(=O)C(C)=CC=CC(C)C(O)C(C)C(O)C(C)C(OC(=O)Nc2cscn2)C1C)C4=O (stereo not shown)", "tested on": "Mycobacteroides abscessus", "assay": "intracellular growth, Hill fit", "system": "THP-1 derived macrophages, ATCC 19977", "measurement": "IC50", "value": "14 nM"}
{"SMILES": "Nc1nc(-c2ccccc2)nc2[nH]nc(Nc3ccc(F)cc3)c12", "tested on": "Human rhinovirus 8", "assay": "cytopathic effect, inhibitor", "system": "HeLa", "measurement": "IC50", "value": "26500 nM"}
{"SMILES": "CNS(=O)(=O)Nc1nccc(Cc2c(C)c3ccc(Oc4ncccc4F)cc3oc2=O)c1F", "tested on": "LUDLU-1", "assay": "cell viability", "conditions": "7 days", "measurement": "IC50", "value": "> 1000 nM"}
{"SMILES": "CNC(=O)C1CCCN(C(=O)C2CC3CCC2N3C(=O)[C@@H]2C[C@@H](O)CN2C(=O)NCc2cccc(Cl)c2F)C1 (mixture of isomers)", "tested on": "CYP2C19 (Homo sapiens, UniProt P33261)", "assay": "enzyme activity, inhibitor, time-dependent inhibition", "conditions": "1.85 µM, preincubated with NADPH", "how to read": "reference: negative control", "measurement": "remaining activity", "value": "103%"}
{"SMILES": "c1ccc2c(Cc3c(-c4c[nH]c5ccccc45)[nH]c4ccccc34)c[nH]c2c1", "tested on": "Bifidobacterium longum", "assay": "microbial growth, absorbance", "measurement": "IC50", "value": "49000 nM"}
{"SMILES": "Nc1nc(-c2ccccc2)nc2[nH]nc(Nc3c(F)cccc3F)c12", "tested on": "Human rhinovirus 8", "assay": "cytopathic effect, inhibitor", "system": "HeLa", "measurement": "IC50", "value": "12100 nM"}
{"SMILES": "Nc1ccn([C@@H]2O[C@H](CO)[C@@H](O)C2(F)F)c(=O)n1", "tested on": "human alphaherpesvirus 1", "system": "K26 GFP, 3D adult human skin air-liquid interface", "conditions": "48 h", "measurement": "IC50", "value": "110 nM"}
{"SMILES": "COC(=O)C1=CO[C@@H](C)[C@@H]2Cn3ccc4c5ccccc5nc-4c3C[C@H]12", "tested on": "Plasmodium falciparum", "assay": "growth", "system": "3D7", "conditions": "96 h", "measurement": "IC50", "value": "166 ± 26 nM"}
{"SMILES": "CNCc1ccc2c(c1)C[C@H](CNC(=N)N)[C@H]2NC(=O)C(=O)Nc1ccc(Cl)c(F)c1", "tested on": "HIV-1", "assay": "viral infection", "system": "TZM-bl, CRF02_AG 263-8 Env pseudovirus", "measurement": "IC50", "value": "4300 nM"}
{"SMILES": "CC1(C)CC(=O)c2c(C(F)(F)F)nn(-c3ccc(C(N)=O)c(N[C@H]4CC[C@H](O)CC4)c3)c2C1", "tested on": "human alphaherpesvirus 1", "system": "K26 GFP, 3D adult human skin submerged", "conditions": "48 h", "measurement": "IC50", "value": "90 nM"}
{"SMILES": "C=C(NC(=O)c1csc(-c2nc3c(cc2O)-c2nc(cs2)C(=O)NC(C(C)O)C(=O)NC(=C(C)OC)c2nc(cs2)C(=O)NC2c4nc(cs4)C(=O)NC(COC(=O)c4c5c6c(cccc6n4O)COC(=O)C(OC4CC(C)(O)C(N(C)C)C(C)O4)C2OC5)c2nc-3cs2)n1)C(N)=O (stereo not shown)", "system": "cynomolgus monkey, plasma", "conditions": "intravenous, 1 mg/kg, single dose, infusion", "measurement": "half-life", "value": "5.25 h"}
{"SMILES": "Cc1ccc(-c2nc(N)c3c(Nc4ccc(Cl)cc4)n[nH]c3n2)cc1", "tested on": "Human rhinovirus 8", "assay": "cytopathic effect, inhibitor", "system": "HeLa", "measurement": "IC50", "value": "1140 nM"}
{"SMILES": "Cc1ncsc1-c1ccc(C(C)NC(=O)C2CC(O)CN2C(=O)C(NC(=O)CCCCCCCCCCN2CCCC(Nc3ncc(Cl)c(Nc4ccccc4S(=O)(=O)C(C)C)n3)C2)C(C)(C)C)cc1 (stereo not shown)", "tested on": "22Rv1", "assay": "RNA-seq, item: ZNF189 mRNA", "conditions": "concentration not given", "how to read": "reference: DMSO", "measurement": "log2 fold change", "value": -1.14}
{"SMILES": "Nc1nc(-c2ccccc2)nc2[nH]nc(Nc3ccc(F)c(Cl)c3)c12", "tested on": "Human rhinovirus 8", "assay": "cytopathic effect, inhibitor", "system": "HeLa", "measurement": "IC50", "value": "123000 nM"}
{"SMILES": "CC(C)CC(c1c[nH]c2ccccc12)c1c[nH]c2ccccc12", "tested on": "Bifidobacterium longum", "assay": "microbial growth, absorbance", "measurement": "IC50", "value": "> 50000 nM"}
{"SMILES": "C=CC(=O)Nc1cccc(Cn2ncc3cnc(Nc4cnn(CCOC)c4)nc32)c1", "tested on": "RIPK2 human", "assay": "binding, KINOMEscan", "conditions": "100 nM", "how to read": "lower = stronger binding", "measurement": "percent of control", "value": "94%"}
{"SMILES": "Nc1ncc(-c2cc(-c3cnn(CC(F)(F)F)c3)ncc2F)nc1C(=O)NC1CNCC(F)C1 (stereo not shown)", "tested on": "MYLK4", "assay": "KINOMEscan", "conditions": "1 µM", "how to read": "reference: DMSO control", "measurement": "remaining binding", "value": "100%"}
{"SMILES": "COC1C=COC2(C)Oc3c(C)c(O)c4c(c3C2=O)C2=NC3(CCN(CC(C)C)CC3)NC2=C(NC(=O)C(C)=CC=CC(C)C(O)C(C)C(O)C(C)C(OC(=O)Nc2cccnn2)C1C)C4=O (stereo not shown)", "tested on": "Mycobacteroides abscessus", "assay": "bacterial growth", "system": "subsp. abscessus M9 clinical isolate", "measurement": "IC50", "value": "12 nM"}
{"SMILES": "Nc1nc(-c2ccccc2)nc2[nH]nc(Nc3cccc(F)c3F)c12", "tested on": "Human rhinovirus 8", "assay": "cytopathic effect, inhibitor", "system": "HeLa", "measurement": "IC50", "value": "122000 nM"}
{"SMILES": "CC(c1c[nH]c2ccccc12)c1c[nH]c2ccccc12", "tested on": "Bifidobacterium longum", "assay": "microbial growth, absorbance", "measurement": "IC50", "value": "> 50000 nM"}
{"SMILES": "Nc1nc(-c2ccc(F)cc2F)nc2[nH]nc(Nc3ccc(F)cc3)c12", "tested on": "Human rhinovirus 8", "assay": "cytopathic effect, inhibitor", "system": "HeLa", "measurement": "IC50", "value": "11000 nM"}
{"SMILES": "O=C(/C=C\\n1cnc(-c2cc(C(F)(F)F)cc(C(F)(F)F)c2)n1)NNc1ccccn1", "tested on": "human alphaherpesvirus 1", "system": "K26 GFP, 3D adult human skin air-liquid interface", "conditions": "48 h", "measurement": "IC50", "value": "260 nM"}
{"SMILES": "Cc1cccc(Nc2n[nH]c3nc(-c4ccc(F)cc4F)nc(N)c23)c1", "tested on": "Human rhinovirus 8", "assay": "cytopathic effect, inhibitor", "system": "HeLa", "measurement": "IC50", "value": "5590 nM"}
{"SMILES": "O=C(Nc1ccc([N+](=O)[O-])cc1Cl)c1cc(Cl)ccc1O", "tested on": "human alphaherpesvirus 1", "system": "K26 GFP, 3D adult human skin air-liquid interface", "conditions": "48 h", "measurement": "IC50", "value": "250 nM"}
{"note": "Some of these lines once more:"}
{"SMILES": "COC(=O)C1=CO[C@@H](C)[C@@H]2Cn3ccc4c5ccccc5nc-4c3C[C@H]12", "tested on": "Plasmodium falciparum", "assay": "growth", "system": "3D7", "conditions": "96 h", "measurement": "IC50", "value": "166 ± 26 nM"}
{"SMILES": "CNCc1ccc2c(c1)C[C@H](CNC(=N)N)[C@H]2NC(=O)C(=O)Nc1ccc(Cl)c(F)c1", "tested on": "HIV-1", "assay": "viral infection", "system": "TZM-bl, CRF02_AG 263-8 Env pseudovirus", "measurement": "IC50", "value": "4300 nM"}
